Measured values pooled from the literature.
Parts stem from different laboratories: compare values within a part only. Positions count from the first letter of the parent shown.

Series 1
Target: Histone acetyltransferase KAT6A, winged helix 2, GST fusion (KAT6A, Homo sapiens, UniProt Q92794, residues 85-181)
Technique: protein binding microarray
Molecule type: double-stranded DNA, one strand shown
Sample: in vitro
Concentration: not given
Setting: 8-mer, flanks averaged, mean of 2 arrays, mostly near background
Baseline: not given
Direction: higher = stronger binding
Residues (chain): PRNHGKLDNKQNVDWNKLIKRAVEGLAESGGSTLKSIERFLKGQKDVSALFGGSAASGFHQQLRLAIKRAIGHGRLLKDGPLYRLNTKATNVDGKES
With `AGGTAAAT` the E-score was -0.0364.
With `CATCACTC` the E-score was -0.0835.
`CTGGGCAC` gave an E-score of 0.049.
With `CAGGATCC` the E-score was -0.0605.
The E-score of `CACCTGAA` is reported as -0.0725.
With `AAGTCCTA` the E-score was -0.202.
`TAGGAGGA` gave an E-score of -0.0478.
For `GCACCCGC`, the E-score was 0.237.

Series 2
Target: Fragile X messenger ribonucleoprotein 1, C-terminal low-complexity region (Fmr1, Mus musculus, UniProt P35922)
Technique: RNA Bind-n-Seq
Molecule type: RNA
Sample: in vitro
Concentration: 200 nM
Setting: whole 134-nt RNA, ends assumed
Together with: 150 mM LiCl
Baseline: input library
Direction: higher = stronger binding
Each molecule: 7-deaza-guanosine replaces G
The log2 enrichment of `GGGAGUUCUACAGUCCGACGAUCUCCUGUGCUACACAUCGUAUGUACCGAAUCGGGGAAAAAGGGGUGGGGAAAAAAAGGGGAAAGUAUUAUGUUACGCCGUUCGGAUCUGCAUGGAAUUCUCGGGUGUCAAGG` is reported as -1.9.
With `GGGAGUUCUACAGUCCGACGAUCCCCAUCAUGUUCAGAGGUGAGGUCCGUCUGAAUGUCGAAGAGAAGAAGACUCGAGCUGCCAGGGAAGGCGACCGACGAGAUAAUCGCCUUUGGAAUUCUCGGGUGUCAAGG` the log2 enrichment was -3.65.
With `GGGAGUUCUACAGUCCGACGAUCGCAGGAAGUAAAAACAAAUGGAAAUGCUUCGGAUAGUGGCAGGGGUGGGGGUUGCUAAGGAAAGGGUGGGAUGGGAGUGGAUAAAGAGUUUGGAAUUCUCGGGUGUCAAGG` the log2 enrichment was 1.44.
`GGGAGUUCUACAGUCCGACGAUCAAGUCCUGUGCUACACAUCGUAUGUACCGAAUCGGGGCCCCGGCCCCGGGCCCCGGAAAGUAUUAUGUUACGCCGUUCGGAUCUGCACUUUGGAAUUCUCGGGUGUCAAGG` gave a log2 enrichment of -3.04.
With `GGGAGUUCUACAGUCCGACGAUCUGGGGUAGACCAGUUCCAUGGCACUGAAUAUGUGUGCUGCCCUCAGACAAAGAUUAUUGGAUCUGUGUCAAAAGAAGAGGAAGAGGAAGAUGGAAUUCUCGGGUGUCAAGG` the log2 enrichment was -0.98.
With `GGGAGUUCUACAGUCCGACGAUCACCAUGCAGGUGGGCAUCUUUGGGAAGUGGGGCAAGGGGGGGAUAGGGAGGGGGGUUACACUUUGGGAACAGGUGGUCCCAGGUCGUUUCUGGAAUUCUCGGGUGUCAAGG` the log2 enrichment was 1.42.

Mixed results
CCND1: CCND1, cyclin fold, Cln2 fusion (human)
P1: GMNC docking peptide (human); KNAKRNLSSEFAN; partner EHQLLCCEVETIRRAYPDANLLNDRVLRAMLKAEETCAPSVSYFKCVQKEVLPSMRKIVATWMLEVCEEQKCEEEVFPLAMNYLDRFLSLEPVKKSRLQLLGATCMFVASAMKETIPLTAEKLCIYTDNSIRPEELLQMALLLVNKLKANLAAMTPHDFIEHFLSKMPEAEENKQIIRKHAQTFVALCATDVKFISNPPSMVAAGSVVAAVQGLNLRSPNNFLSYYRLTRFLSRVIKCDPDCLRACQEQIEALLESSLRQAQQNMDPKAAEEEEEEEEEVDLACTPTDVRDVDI
Under “normalised enrichment score”, `P1 F11R` is recorded as -0.048 (CCND1; yeast growth competition, sequencing; yeast; weak parent motif; baseline: not given, higher = stronger binding).
`PhoQ, residues 284 288 289 292 302 303 QWQEDG` has a fold induction of 8.85 (PhoP, residues 12 14 15 18 19 YHFSH (Escherichia coli, UniProt P23836); Sort-seq, refers to: YFP reporter; E. coli; PhoQ-PhoP variant library, together with: 10 µM Mg2+; baseline: high Mg2+ state, higher = stronger signaling).
`P1 L7N`: “normalised enrichment score” 0.0298 (CCND1; yeast growth competition, sequencing; yeast; weak parent motif; baseline: not given, higher = stronger binding).

Excerpt of the above (series 1):
With `CATCACTC` the E-score was -0.0835.
